Assay results gathered from unrelated publications.
Parts stem from different laboratories: compare values within a part only. Positions count from the first letter of the parent shown.

Series 1
Target: CCND1, cyclin fold, Cln2 fusion (human)
Technique: yeast growth competition, sequencing
Medium: yeast
Setting: weak parent motif
Baseline: not given
Direction: higher = stronger binding
Starting sequence: E2F7 docking peptide (human); SSAQRRLEIPSGG
| Variant | normalised enrichment score |
| --- | --- |
| R5A L7A | 0.26 |
| S1A | 0.231 |
| R6A | -0.337 |
| E8A | -0.0574 |
| P10A | -0.0685 |
| Q4A | 0.277 |
| I9A | 0.333 |
| I9F | 3.24 |

Series 2
Target: Protein C-ets-1 (ETS1, Homo sapiens, UniProt P14921, residues 1-441, K379A, full length assumed)
Technique: protein-binding microarray
Form: double-stranded DNA, one strand shown
Medium: in vitro
Concentration: not given
Setting: k-mer, scored over probes, only values ≥0.25
Direction: higher = stronger binding
Residues (chain): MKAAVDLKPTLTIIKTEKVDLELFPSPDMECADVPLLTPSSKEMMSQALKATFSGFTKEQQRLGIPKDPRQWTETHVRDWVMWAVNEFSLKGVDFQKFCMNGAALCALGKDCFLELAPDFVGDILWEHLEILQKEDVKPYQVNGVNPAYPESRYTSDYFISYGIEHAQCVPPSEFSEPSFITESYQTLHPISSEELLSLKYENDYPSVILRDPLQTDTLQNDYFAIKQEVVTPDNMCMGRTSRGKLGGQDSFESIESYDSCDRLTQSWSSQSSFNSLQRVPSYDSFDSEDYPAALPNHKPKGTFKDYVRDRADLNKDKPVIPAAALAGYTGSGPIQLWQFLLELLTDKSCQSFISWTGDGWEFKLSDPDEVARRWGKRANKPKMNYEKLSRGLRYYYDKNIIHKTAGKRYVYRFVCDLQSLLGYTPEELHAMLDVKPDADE
| Oligonucleotide | E-score |
| --- | --- |
| CCGGAAAG | 0.306 |
| ACATGTTG | 0.262 |
| GCAATACA | 0.31 |
| ACGTCCGG | 0.301 |
| CCGGTTTA | 0.3 |
| GGTCGACC | 0.257 |
| CGGTAATA | 0.28 |
| CCGGTCGC | 0.311 |

Series 3
Target: PABPC1L2, full length, GST fusion (mouse, UniProt A0ABA7IW68)
Technique: RNAcompete
Form: RNA
Medium: in vitro
Concentration: 20 nM
Setting: 7-mer, probes averaged, single round
Baseline: mean of 7-mers
Direction: higher = stronger binding
Residues (chain): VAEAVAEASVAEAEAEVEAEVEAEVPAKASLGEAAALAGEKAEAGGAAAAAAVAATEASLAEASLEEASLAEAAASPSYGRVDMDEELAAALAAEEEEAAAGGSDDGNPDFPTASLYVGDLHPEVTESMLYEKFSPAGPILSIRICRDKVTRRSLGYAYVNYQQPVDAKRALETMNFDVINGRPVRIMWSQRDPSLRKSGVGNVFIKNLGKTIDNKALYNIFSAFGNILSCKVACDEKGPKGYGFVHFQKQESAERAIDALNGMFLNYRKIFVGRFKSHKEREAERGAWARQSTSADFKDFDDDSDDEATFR
| Oligonucleotide | 7-mer Z-score |
| --- | --- |
| CAGCUAA | 0.00979 |
| AAUAUUG | 0.267 |
| AACGGAU | 0.173 |
| GGCUGUG | -0.0808 |
| UGGUAUA | -0.0989 |
| AGACAAU | 0.0261 |
| GACCUCA | -0.11 |
| GAAUAUU | -0.242 |

Other studies, line by line
| Molecule | target | test | system | setting | measurement | result |
| --- | --- | --- | --- | --- | --- | --- |
| MAVTAAPYI | HLA class I histocompatibility antigen, A alpha chain, allele A*80:01 (Homo sapiens, UniProt P04439) | peptide-MHC binding | peptide | concentration not given | binding | inactive |

Some of these lines once more (series 3):
| Oligonucleotide | 7-mer Z-score |
| --- | --- |
| GAAUAUU | -0.242 |
| UGGUAUA | -0.0989 |
| CAGCUAA | 0.00979 |
